Published values collected from several papers.
Protocols differ between the studies behind these lines. “And” joins repeats or separate records; there may be more than shown. Numbers after ± are the reported error.
Ribonucleoside-diphosphate reductase large subunit: Ribonucleoside-diphosphate reductase large subunit (Homo sapiens, UniProt P23921)
Chain of UniProt P23921 (whole entry, looked up): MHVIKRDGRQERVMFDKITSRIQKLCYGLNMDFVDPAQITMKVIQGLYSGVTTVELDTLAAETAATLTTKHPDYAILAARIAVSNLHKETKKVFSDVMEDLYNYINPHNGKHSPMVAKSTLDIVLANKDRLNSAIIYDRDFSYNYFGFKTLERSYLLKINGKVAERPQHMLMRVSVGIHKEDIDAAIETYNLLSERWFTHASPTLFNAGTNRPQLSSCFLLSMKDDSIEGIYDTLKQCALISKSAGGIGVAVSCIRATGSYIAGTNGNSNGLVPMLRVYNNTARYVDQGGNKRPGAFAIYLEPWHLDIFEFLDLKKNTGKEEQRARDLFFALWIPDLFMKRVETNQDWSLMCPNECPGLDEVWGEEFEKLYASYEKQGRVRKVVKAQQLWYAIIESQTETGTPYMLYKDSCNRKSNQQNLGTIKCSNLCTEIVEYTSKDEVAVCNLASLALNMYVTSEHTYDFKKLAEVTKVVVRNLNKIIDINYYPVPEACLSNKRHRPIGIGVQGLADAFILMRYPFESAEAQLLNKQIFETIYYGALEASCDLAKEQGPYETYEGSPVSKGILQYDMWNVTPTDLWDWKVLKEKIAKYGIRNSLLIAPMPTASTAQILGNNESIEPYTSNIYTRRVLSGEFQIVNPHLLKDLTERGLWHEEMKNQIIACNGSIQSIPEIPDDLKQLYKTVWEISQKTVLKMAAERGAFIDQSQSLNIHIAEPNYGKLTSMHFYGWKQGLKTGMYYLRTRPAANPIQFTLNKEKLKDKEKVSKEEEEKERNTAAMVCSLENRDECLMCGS
ADORA3: Adenosine receptor A3 (ADORA3, Homo sapiens, UniProt P0DMS8)
Chain of UniProt P0DMS8 (whole entry, looked up): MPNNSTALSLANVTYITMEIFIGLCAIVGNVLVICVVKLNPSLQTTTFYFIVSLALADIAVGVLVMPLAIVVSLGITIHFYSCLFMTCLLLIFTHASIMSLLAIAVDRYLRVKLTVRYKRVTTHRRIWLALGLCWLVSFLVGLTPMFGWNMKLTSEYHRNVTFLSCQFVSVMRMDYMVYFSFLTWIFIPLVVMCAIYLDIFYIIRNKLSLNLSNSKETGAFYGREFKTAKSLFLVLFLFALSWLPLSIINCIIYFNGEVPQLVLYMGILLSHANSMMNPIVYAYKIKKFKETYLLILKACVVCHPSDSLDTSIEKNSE
OGG1: N-glycosylase/DNA lyase (OGG1, Homo sapiens, UniProt O15527)
Chain of UniProt O15527 (whole entry, looked up): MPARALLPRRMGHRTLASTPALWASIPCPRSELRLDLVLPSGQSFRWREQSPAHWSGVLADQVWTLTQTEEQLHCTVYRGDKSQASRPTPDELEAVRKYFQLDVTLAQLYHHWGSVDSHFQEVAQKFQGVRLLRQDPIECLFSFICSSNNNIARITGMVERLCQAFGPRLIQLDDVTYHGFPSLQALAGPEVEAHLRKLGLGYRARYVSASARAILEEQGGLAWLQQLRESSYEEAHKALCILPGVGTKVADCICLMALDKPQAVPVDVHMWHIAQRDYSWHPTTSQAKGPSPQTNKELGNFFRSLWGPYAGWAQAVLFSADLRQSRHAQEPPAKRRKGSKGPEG
odorant-binding protein 24: odorant-binding protein 24 (Monochamus alternatus, UniProt A0A1I9HZN3)
SNCA fibrils: Alpha-synuclein, fibrils (SNCA, Homo sapiens, UniProt P37840)
Mapk1: Mitogen-activated protein kinase 1 (Mapk1, Rattus norvegicus, UniProt P63086)
Chain of UniProt P63086 (whole entry, looked up): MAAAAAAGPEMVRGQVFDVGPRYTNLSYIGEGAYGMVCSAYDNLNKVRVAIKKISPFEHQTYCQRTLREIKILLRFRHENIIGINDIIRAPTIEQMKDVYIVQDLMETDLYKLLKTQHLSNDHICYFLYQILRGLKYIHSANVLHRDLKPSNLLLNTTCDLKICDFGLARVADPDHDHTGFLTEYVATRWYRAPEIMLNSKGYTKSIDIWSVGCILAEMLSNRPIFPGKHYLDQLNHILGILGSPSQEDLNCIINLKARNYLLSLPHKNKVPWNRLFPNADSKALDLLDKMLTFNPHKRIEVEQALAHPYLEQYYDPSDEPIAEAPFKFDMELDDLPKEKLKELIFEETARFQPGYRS
LRRK2 G2019S: Leucine-rich repeat serine/threonine-protein kinase 2 (LRRK2, Homo sapiens, UniProt Q5S007, G2019S)
HRH4: Histamine H4 receptor (HRH4, Homo sapiens, UniProt Q9H3N8)
Chain of UniProt Q9H3N8 (whole entry, looked up): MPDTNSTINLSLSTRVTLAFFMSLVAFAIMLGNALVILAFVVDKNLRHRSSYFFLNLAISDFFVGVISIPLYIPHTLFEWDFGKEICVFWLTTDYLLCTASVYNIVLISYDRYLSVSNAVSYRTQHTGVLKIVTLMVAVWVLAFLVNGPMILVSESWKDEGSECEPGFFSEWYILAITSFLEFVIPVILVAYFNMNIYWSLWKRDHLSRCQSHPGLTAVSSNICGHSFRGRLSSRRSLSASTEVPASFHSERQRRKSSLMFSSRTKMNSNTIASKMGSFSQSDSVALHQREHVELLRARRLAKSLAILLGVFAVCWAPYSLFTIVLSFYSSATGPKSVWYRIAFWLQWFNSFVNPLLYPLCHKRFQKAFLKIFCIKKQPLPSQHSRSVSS
SLC18A3: Vesicular acetylcholine transporter (SLC18A3, Homo sapiens, UniProt Q16572)
Chain of UniProt Q16572 (whole entry, looked up): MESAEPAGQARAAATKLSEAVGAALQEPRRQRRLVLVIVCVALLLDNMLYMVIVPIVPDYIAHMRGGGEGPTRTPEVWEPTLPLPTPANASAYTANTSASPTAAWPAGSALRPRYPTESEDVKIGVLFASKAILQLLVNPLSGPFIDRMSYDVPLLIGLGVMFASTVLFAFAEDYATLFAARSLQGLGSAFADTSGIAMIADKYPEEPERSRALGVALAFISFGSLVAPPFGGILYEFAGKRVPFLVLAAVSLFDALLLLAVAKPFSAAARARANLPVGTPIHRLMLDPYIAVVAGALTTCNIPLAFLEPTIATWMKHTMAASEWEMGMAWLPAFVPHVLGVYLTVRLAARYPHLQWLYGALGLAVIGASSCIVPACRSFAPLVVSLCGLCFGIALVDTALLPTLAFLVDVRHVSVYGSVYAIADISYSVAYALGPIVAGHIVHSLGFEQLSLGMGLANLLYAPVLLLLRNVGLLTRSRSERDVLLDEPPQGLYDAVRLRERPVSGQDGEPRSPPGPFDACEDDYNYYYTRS
Adcy2/ADCY5 C1/C2 domains: Adcy2/ADCY5, C1/C2 domains (Rattus norvegicus, UniProt P26769+P30803)
Chain of UniProt P30803 (whole entry, looked up): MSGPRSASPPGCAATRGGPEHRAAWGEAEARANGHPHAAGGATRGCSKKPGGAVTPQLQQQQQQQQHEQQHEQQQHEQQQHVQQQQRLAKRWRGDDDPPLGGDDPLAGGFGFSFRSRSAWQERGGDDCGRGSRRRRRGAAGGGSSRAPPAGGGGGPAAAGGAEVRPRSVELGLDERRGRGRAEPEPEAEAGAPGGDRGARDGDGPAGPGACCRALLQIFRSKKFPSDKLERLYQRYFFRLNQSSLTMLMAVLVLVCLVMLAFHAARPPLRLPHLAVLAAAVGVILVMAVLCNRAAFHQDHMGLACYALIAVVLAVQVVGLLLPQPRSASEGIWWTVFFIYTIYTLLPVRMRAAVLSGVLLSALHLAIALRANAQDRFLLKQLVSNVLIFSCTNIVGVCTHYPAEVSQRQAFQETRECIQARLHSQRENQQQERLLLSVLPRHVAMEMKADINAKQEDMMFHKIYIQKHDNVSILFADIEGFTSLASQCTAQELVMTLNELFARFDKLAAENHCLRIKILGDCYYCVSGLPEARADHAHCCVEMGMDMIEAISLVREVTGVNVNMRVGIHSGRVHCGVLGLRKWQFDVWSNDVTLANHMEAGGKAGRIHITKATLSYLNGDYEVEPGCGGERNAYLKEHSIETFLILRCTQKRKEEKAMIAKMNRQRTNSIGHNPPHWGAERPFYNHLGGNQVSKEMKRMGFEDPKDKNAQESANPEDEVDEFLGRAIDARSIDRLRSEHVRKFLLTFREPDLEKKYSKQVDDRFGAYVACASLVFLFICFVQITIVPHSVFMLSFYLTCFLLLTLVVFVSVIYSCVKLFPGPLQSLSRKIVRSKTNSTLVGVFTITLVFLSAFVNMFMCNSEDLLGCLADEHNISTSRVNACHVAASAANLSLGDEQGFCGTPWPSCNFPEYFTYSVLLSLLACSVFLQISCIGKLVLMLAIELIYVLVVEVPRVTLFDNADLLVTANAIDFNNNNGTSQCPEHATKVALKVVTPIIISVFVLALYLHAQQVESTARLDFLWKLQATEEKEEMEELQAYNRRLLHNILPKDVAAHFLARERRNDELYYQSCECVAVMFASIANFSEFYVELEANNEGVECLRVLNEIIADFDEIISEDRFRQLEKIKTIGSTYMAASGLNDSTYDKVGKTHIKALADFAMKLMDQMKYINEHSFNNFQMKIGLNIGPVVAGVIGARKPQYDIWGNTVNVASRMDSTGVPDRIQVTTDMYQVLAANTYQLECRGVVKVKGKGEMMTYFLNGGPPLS
Chain of UniProt P21397 (whole entry, unmodified, looked up): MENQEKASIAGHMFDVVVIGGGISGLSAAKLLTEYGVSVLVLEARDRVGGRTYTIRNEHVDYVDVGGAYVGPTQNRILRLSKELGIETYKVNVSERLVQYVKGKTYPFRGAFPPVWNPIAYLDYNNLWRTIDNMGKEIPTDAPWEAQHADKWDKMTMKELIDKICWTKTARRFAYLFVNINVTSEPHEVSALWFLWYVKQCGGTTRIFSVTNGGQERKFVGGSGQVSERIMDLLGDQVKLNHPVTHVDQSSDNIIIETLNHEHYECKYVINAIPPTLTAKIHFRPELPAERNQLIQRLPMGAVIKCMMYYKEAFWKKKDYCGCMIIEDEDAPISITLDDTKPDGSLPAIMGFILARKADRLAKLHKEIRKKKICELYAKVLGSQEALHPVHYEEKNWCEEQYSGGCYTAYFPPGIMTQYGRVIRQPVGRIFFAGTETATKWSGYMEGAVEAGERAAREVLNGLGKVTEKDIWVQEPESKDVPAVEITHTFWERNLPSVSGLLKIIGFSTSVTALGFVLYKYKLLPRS
Chain of UniProt P08908 (whole entry, looked up): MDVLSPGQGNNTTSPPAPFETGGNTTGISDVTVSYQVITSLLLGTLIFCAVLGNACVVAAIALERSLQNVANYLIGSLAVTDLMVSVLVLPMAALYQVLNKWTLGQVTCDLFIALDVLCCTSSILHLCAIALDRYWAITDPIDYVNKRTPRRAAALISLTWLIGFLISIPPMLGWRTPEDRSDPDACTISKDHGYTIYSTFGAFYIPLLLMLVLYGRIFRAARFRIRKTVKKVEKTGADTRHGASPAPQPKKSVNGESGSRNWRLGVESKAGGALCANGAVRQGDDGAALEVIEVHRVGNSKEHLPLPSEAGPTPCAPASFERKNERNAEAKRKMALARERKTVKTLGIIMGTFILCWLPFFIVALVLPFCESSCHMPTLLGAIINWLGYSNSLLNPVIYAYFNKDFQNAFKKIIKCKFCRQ

| Molecule | target | test | system | conditions | Ki |
| --- | --- | --- | --- | --- | --- |
| O=P(O)(O)OC[C@H]1N[C@H](COP(=O)(O)O)[C@@H](O)[C@@H]1O | Adenine phosphoribosyltransferase 1 (APT1, Saccharomyces cerevisiae, UniProt P49435) | enzyme activity, competitive inhibitor |  | pH 7.5, 25 °C, together with: 2,6-diaminopurine 250 µM, PRPP 250 µM | 8.7 ± 1.5 µM |
| CSC[C@H]1CN(Cc2c[nH]c3c(N)ncnc23)C[C@@H]1O | 5'-methylthioadenosine/S-adenosylhomocysteine nucleosidase (mtnN, Salmonella choleraesuis, UniProt Q57T48) | enzyme activity, slow-onset inhibitor | Salmonella enterica |  | 5e-06 ± 4e-07 µM |
| Nc1nc(Cl)nc2c1ncn2[C@H]1C[C@H](O)[C@@H](COP(=O)(O)OP(=O)(O)OP(=O)(O)O)O1 | Ribonucleoside-diphosphate reductase large subunit | CDP reductase activity, inhibitor |  | 3 min, apparent Ki, together with: CDP substrate, ATP effector | 0.5 ± 0.1 µM |
| CCOC(=O)[C@@]12C[C@@H]1[C@@H](n1ccc3c(NC)nc(C#Cc4ccc(Cl)s4)nc31)[C@H](O)[C@@H]2O | ADORA3 | ligand displacement, radioligand |  | cell membranes | 0.448 µM |
| Nc1ccn([C@H]2C[C@H](O)[C@@H](COP(=O)(O)O)O2)c(=O)n1 | OGG1 | 8-oxoguanine excision, competitive inhibitor |  | pH 7.5, 37 °C, substrate at 2 × Km, together with: 22 nM oxoguanine duplex DNA | 9400 µM |
| (+)-β-pinene | odorant-binding protein 24 | competitive fluorescence binding |  | pH 7.4, together with: 1-NPN | > 50 µM |
| O=c1cc[nH]c(=O)[nH]1 | P1-type nucleoside transporter | thymidine uptake, inhibitor | Trypanosoma brucei brucei, bloodstream form | 15 min, together with: [3H]-thymidine | > 2500 µM |
| CC(=O)C1CCCN1Cc1ccccc1 (stereo not drawn) | Alpha-glucosidase MAL12 (MAL12, Saccharomyces cerevisiae S288c, UniProt P53341) | enzyme activity, inhibitor, absorbance |  |  | 2440 µM |
| Nc1nc2c([nH]c(=O)n2[C@H]2C[C@H](O)[C@@H](COP(=O)(O)O)O2)c(=O)[nH]1 | OGG1 | 8-oxoguanine excision, competitive inhibitor |  | pH 7.5, 37 °C, substrate at 2 × Km, together with: 22 nM oxoguanine duplex DNA | 1600 µM |
| CN(C)c1ccc(/C=C/C(=O)c2nccs2)cc1 | SNCA fibrils | fibril binding, thioflavin T competition |  | 1 µM fibrils, together with: thioflavin T 3 µM | 0.096 µM and 0.0955 µM |
| CC(=O)N[C@@H](Cc1ccc(O)cc1)C(=O)N[C@@H](C)C(=O)N1CCC[C@H]1C(=O)N[C@@H](CCCNC(=N)N)C(=O)N[C@@H](C)C(=O)N1CCC[C@H]1C(=O)N[C@@H](C)C(=O)N[C@@H](CCCCN)C(=O)N[C@@H](CC(C)C)C(=O)N[C@@H](C)C(=O)N[C@@H](Cc1ccccc1)C(=O)N[C@@H](CCC(N)=O)C(=O)N[C@@H](Cc1ccccc1)C(=O)N1CCC[C@H]1C(=O)N[C@@H](CO)C(=O)N[C@@H](CCCNC(=N)N)C(N)=O | Mapk1 | competitive vs substrate |  | together with: MgATP 1 mM, varied Sub-F | 26 ± 5 µM |
| C=C(C)[C@H]1CC=C(C)CC1 | odorant-binding protein 24 | competitive fluorescence binding |  | pH 7.4, together with: 1-NPN | > 50 µM |
| c1cc2c(cc1C1CCCCC1)c1c3n2CCNC3CCC1 (stereo not drawn) | Amine oxidase [flavin-containing] A (MAOA, Homo sapiens, UniProt P21397, S209E) | enzyme activity, competitive inhibitor, Amplex Red coupled |  | S209E mutant, together with: p-CF3-benzylamine | 16.1 ± 0.57 µM |
| CC(=O)N[C@@H](Cc1ccccc1)C(=O)N[C@@H](CCC(N)=O)C(=O)N[C@@H](CCCNC(=N)N)C(=O)N[C@@H](CCCCN)C(=O)N[C@H](C(=O)N[C@@H](CC(C)C)C(=O)N[C@@H](CCC(N)=O)C(=O)N[C@@H](CCCNC(=N)N)C(=O)N[C@@H](CCCNC(=N)N)C(=O)N[C@@H](CC(N)=O)C(=O)N[C@@H](CC(C)C)C(=O)N[C@@H](CCCCN)C(=O)NCC(=O)N[C@@H](CC(C)C)C(=O)N[C@@H](CC(N)=O)C(=O)N[C@@H](CC(C)C)C(=O)N[C@@H](CC(N)=O)C(=O)N[C@@H](CC(C)C)C(N)=O)[C@@H](C)O | Mapk1 | competitive vs substrate |  | together with: MgATP 1 mM, varied Sub-D | 20 ± 4 µM |
| COc1ccc(C(=O)/C=C/c2ccccc2)c(O)c1 | GABA-A receptor benzodiazepine site (rat) | binding | rat cerebral cortex membranes | together with: [3H]flunitrazepam | 9 ± 1.2 µM |
| CCOC(=O)C1(CCN2CCc3ccccc3C2)Cc2cc(Cl)ccc2C1=O (stereo not drawn) | 5-hydroxytryptamine receptor 1A (HTR1A, Homo sapiens, UniProt P08908) | radioligand binding |  | together with: [3H]8-OH-DPAT | 0.0501 µM |
| Nc1ncnc2c1ncn2[C@@H]1O[C@H](COP(=O)(O)OP(=O)(O)O)[C@@H](O)[C@H]1O | LRRK2 G2019S | kinase activity, inhibitor, radiometric |  | Ki,eb, variable LRRKtide | 100 ± 10 µM |
| Nc1ncnc2c1ncn2[C@@H]1O[C@H](COP(=O)(O)OP(=O)(O)O)[C@@H](O)[C@H]1O | Cyclin-dependent kinase 5, with p25 (CDK5, Homo sapiens, UniProt Q00535) | inhibitor |  | ATP varied, together with: 0.2 mM MgCl2 | 300 ± 100 µM |
| Nc1nc(Cl)nc2c1ncn2[C@@H]1O[C@H](CO)[C@@H](O)[C@@H]1F | ADORA3 | ligand displacement, radioligand |  | cell membranes | 10.6 µM |
| N=C(NCCCNC(N)=O)NCCCc1c[nH]cn1 | HRH4 | ligand displacement, radioligand |  | cell membranes | 0.145 µM |
| O=C(c1ccc(SCCCF)cc1)C1CCN(C2Cc3ccccc3CC2O)CC1 (racemic) | SLC18A3 | ligand displacement, radioligand |  |  | 0.0023 µM |

| Molecule | target | test | system | conditions | Ki |
| --- | --- | --- | --- | --- | --- |
| N=C(NCCCCCCCCN)NCCCc1c[nH]cn1 | HRH4 | ligand displacement, radioligand |  | cell membranes | 0.468 µM |
| CNc1ccccc1C(=O)O[C@@H]1C[C@@H](COP(=O)(O)OP(=O)(O)OP(=O)(O)O)O[C@H]1n1cnc2c(N)ncnc21 | Adcy2/ADCY5 C1/C2 domains | adenylyl cyclase activity, inhibitor, purified enzyme |  | together with: 10 mM MnCl2, 100 µM forskolin, no Gsα-GTPγS | 1.2 ± 0.1 µM |
| O=c1[nH]cnc2c1ncn2[C@@H]1O[C@H](CO)[C@@H](O)[C@H]1O | P1-type nucleoside transporter | thymidine uptake, inhibitor | Trypanosoma brucei brucei, bloodstream form | 15 min, together with: [3H]-thymidine | 1.6 ± 0.6 µM |
| Cc1nc(N)sc1CCCNC(=N)NCCCCCCCCCCCCN | HRH4 | ligand displacement, radioligand |  | cell membranes | 4.68 µM |
| COC(=O)C1(C)C=CC(=O)CC1 (stereo not drawn) | Mitogen-activated protein kinase 8 (MAPK8, Homo sapiens, UniProt P45983) | ligand displacement, FP |  |  | > 200 µM |
| Cc1nc(N)sc1CCCNC(=N)NCCCCCCCCCCCCNC(=N)N | HRH4 | ligand displacement, radioligand |  | cell membranes | 0.589 µM |
| CNc1ccccc1C(=O)O[C@@H]1C[C@@H](COP(=O)(O)OP(=O)(O)OP(=O)(O)O)O[C@H]1n1cnc2c(=O)[nH]c(N)nc21 | Adcy2/ADCY5 C1/C2 domains | adenylyl cyclase activity, inhibitor, purified enzyme |  | together with: 10 mM MnCl2, 100 µM forskolin, no Gsα-GTPγS | 1.2 ± 0.074 µM |
| CNS(=O)(=O)c1ccc(C(=O)C2CCN(C3Cc4ccccc4CC3O)CC2)cc1 (racemic) | SLC18A3 | ligand displacement, radioligand |  |  | 0.0063 µM |
| N=C(NCCCCCCCCCCCCN)NCCCc1c[nH]cn1 | HRH4 | ligand displacement, radioligand |  | cell membranes | 0.0692 µM |
| CC1=CCC(=C(C)C)CC1 | odorant-binding protein 24 | binding, competitive fluorescence binding |  | pH 5, together with: 1-NPN | > 50 µM |
| CN(C)c1ccc(/C=C/C(=O)c2nc3ccccc3s2)cc1 | SNCA fibrils | fibril binding, thioflavin T competition |  | 1 µM fibrils, together with: thioflavin T 3 µM | 0.906 ± 0.0297 µM |
| NC(=O)NCCCc1c[nH]cn1 | HRH4 | ligand displacement, radioligand |  | cell membranes | 0.148 µM |
| Nc1ncnc2c1ncn2[C@@H]1O[C@H](COP(=O)(O)OP(=O)(O)O)[C@@H](O)[C@H]1O | Mapk1 | ATP-competitive component |  | together with: substrate Sub-D 20 µM, varied MgATP | 91 ± 25 µM |
| NS(=O)(=O)Cc1noc2ccccc12 | Amine oxidase [flavin-containing] A (MAOA, Homo sapiens, UniProt P21397) | inhibitor |  | up to 100 µM, together with: kynuramine | no inhibition |
| N=C(N)NCCCCCCCCNC(=N)NCCCc1cnc(N)s1 | HRH4 | ligand displacement, radioligand |  | cell membranes | 2.4 µM |
| O=c1ccn([C@H]2C[C@H](O)[C@@H](CO)O2)c(=O)[nH]1 | P1-type nucleoside transporter | thymidine uptake, inhibitor | Trypanosoma brucei brucei, bloodstream form | 15 min, together with: [3H]-thymidine | 320 ± 60 µM |
| Nc1nc(F)nc2c1ncn2[C@@H]1O[C@H](COP(=O)(O)OP(=O)(O)OP(=O)(O)O)[C@@H](O)[C@@H]1O | Ribonucleoside-diphosphate reductase large subunit | CDP reductase activity, inhibitor |  | 3 min, apparent Ki, together with: CDP substrate, ATP effector | 6.8 ± 1.3 µM |
| (+)-limonene oxide | odorant-binding protein 24 | competitive fluorescence binding |  | pH 5, together with: 1-NPN | > 50 µM |
| Nc1ncnc2c1ncn2[C@@H]1O[C@H](COP(=O)(O)OP(=O)(O)NP(=O)(O)O)[C@@H](O)[C@H]1O | LRRK2 G2019S | kinase activity, inhibitor, TR-FRET |  | Ki,e, together with: PLK peptide substrate, ATP varied | 400 ± 200 µM |
| N=C(NCCCCCCCCCCCCN)NCCCc1cnc(N)s1 | HRH4 | ligand displacement, radioligand |  | cell membranes | 22.4 µM |
| COc1ccc(O)c(C(=O)/C=C/c2ccccc2)c1 | GABA-A receptor benzodiazepine site (rat) | binding | rat cerebral cortex membranes | together with: [3H]flunitrazepam | 45.7 ± 1.3 µM |

For quick reference, copied from above:
| Molecule | target | test | system | conditions | Ki |
| --- | --- | --- | --- | --- | --- |
| CNS(=O)(=O)c1ccc(C(=O)C2CCN(C3Cc4ccccc4CC3O)CC2)cc1 (racemic) | SLC18A3 | ligand displacement, radioligand |  |  | 0.0063 µM |
| Nc1nc(Cl)nc2c1ncn2[C@@H]1O[C@H](CO)[C@@H](O)[C@@H]1F | ADORA3 | ligand displacement, radioligand |  | cell membranes | 10.6 µM |
| O=C(c1ccc(SCCCF)cc1)C1CCN(C2Cc3ccccc3CC2O)CC1 (racemic) | SLC18A3 | ligand displacement, radioligand |  |  | 0.0023 µM |
